# Assay results pooled from the literature.
# Compare with care: the assays were run in different laboratories. Numbers after ± are the reported error.
SMILES,assay,system,conditions,scale,quantity,result
CNC(=O)c1ccc(-c2cnc3ncc(Cc4ccc5ncccc5c4)n3n2)cc1F,item: Dyspepsia,gastric cancer patients,"oral, 600 mg twice daily, expansion cohort, grade 3-4",,patients with adverse event,0%
CN(CCC#N)C1CCN(C(=O)Cn2cc(NC(=O)c3cnn4cccnc34)c(-c3cc(Cl)ccc3OC(F)F)n2)CC1,,"human, single ascending dose","1.5 mg, day 4",reference: baseline,reticulocyte count change,2.8 10⁹/L
O=C(N[C@H](Cc1c[nH]c2ccccc12)C(=O)Nc1ccncc1)c1ccc(-c2ccc(F)c(C(F)(F)F)c2)cc1F,,"Swiss Webster mouse, female, liver","oral, 50 mg/kg, 2 h, 20% HPβCD vehicle",,concentration,31.9 µM
O=C1CCc2ccc(OCCCCN3CCN(c4cccc(Cl)c4Cl)CC3)cc2N1,,CYP2D6 normal metabolizers,"concentration not given, genotype-based phenotype, long-acting oral or depot",,cardiovascular symptom frequency,2.5%
COc1c(N2C[C@@H]3CCCN[C@@H]3C2)c(F)cc2c(=O)c(C(=O)O)cn(C3CC3)c12,,"male Hartley guinea pigs, anaesthetized","intravenous, 5 mg/kg over 10 min, after infusion",,heart rate,228 ± 1.3 beats/min
C=CC(=O)Nc1cc(Nc2nccc(-c3cn(C)c4ccccc34)n2)c(OC)cc1N(C)CCN(C)C,storage stability,human plasma,"24 h, on ice, LLOQ level",,recovery,78.8%
OCCOCc1ccc(-c2noc(-c3ccc(OCC[18F])c(C(F)(F)F)c3)n2)cc1,radio-HPLC,"Macaca mulatta, arterial plasma","60 min, radiotracer",,parent fraction in plasma,37 to 38%
CCO[C@H]1CCN(Cc2c(OC)cc(C)c3[nH]ccc23)[C@H](c2ccc(C(=O)O)cc2)C1,,"PNH patients, active haemolysis","oral, 25 mg, 4 weeks, treatment",,incidence of abdominal pain,0%
COc1ncc(-c2nc3c(n2C(C)C)[C@H](c2ccc(Cl)cc2)N(c2cc(Cl)cn(C)c2=O)C3=O)c(OC)n1,LC-MS/MS,"human, plasma","oral, 1 mg, cycle 1 day 1, low-dose arm",,AUC(0-last),134 ng·h/mL
N#Cc1ccc2c(c1)[C@H]1CCCN(C(=O)c3ccc4[nH]cnc4c3)[C@H]1C2,,human,"160 mg, end of trial",,mean ACTH level,5.4 pmol/L
CO[C@H]1C[C@@H]2CC[C@@H](C)[C@@](O)(O2)C(=O)C(=O)N2CCCC[C@H]2C(=O)O[C@H]([C@H](C)C[C@@H]2CC[C@@H](OC(=O)NCCOCCOCCOCCOCCOCCOCCOCCOCCC(=O)N3CCc4cc(Cn5nc(-c6ccc7oc(N)nc7c6)c6c(N)ncnc65)ccc4C3)[C@H](OC)C2)C[C@@H](O)[C@H](C)/C=C(\C)[C@@H](O)[C@@H](OC)C(=O)[C@H](C)C[C@H](C)/C=C/C=C/C=C/1C,,"human, plasma","intravenous, 12 mg, cycle 1 day 1, arithmetic mean",,AUC(0-t),727 ng·h/mL
C[C@@H](N)C1CCN(S(=O)(=O)c2cccc3cnccc23)CC1,,healthy volunteers,"150 mg single dose, fed",,treatment-related TEAEs,30%
COc1ccc2c(=O)n(C)c(-c3ccccc3)nc2c1,,"Sprague-Dawley rat, male, testis","oral, 30 mg/kg, 2 h",reference: testis over plasma,tissue/plasma ratio,1.63
NC1(C(=O)N[C@@H](CCO)c2ccc(Cl)cc2)CCN(c2nc[nH]c3nccc2-3)CC1,"LC-MS/MS, non-compartmental","human patients, plasma","160/480 mg cohort, cycle 0, geometric mean, added: enzalutamide",,Tmax,2.3 h
Cn1cc(Nc2nccc(-c3ccc4c(c3)CN(C3COC3)CC[C@H]4NC(=O)c3cn(C(C)(C)C)nn3)n2)cn1,,"human, whole blood","150 mg twice daily, day 14",reference: pre-dose baseline,non-switched memory B cell change,-20.5%
COc1ccc2[nH]c([S@+]([O-])Cc3ncc(C)c(OC)c3C)nc2c1,,"human male, dried plasma spots","oral, 5 mg racemic omeprazole, added: fluvoxamine and voriconazole",,AUC(0-8 h),1.58 µM·h
CNCc1ccc(-c2[nH]c3cc(F)cc4c3c2CCNC4=O)cc1,,patients,"oral, 240 mg twice daily, all grades",,abdominal pain incidence,0%
O=C(Nc1ccc(OC(F)(F)Cl)cc1)c1cnc(N2CC[C@@H](O)C2)c(-c2ccn[nH]2)c1,"per treatment cycle, item: lipase increase",human patients,"oral, dose not given, 28 day cycle, dose-finding study",,grade ≥3 event rate,2.3%
Cc1cc(-c2nnc(N)nc2-c2ccc(F)cc2)cc(Cl)n1,,"human, post-IO other solid tumours","oral, 100 mg, phase Ia/Ib, any grade",,patients with treatment-related diarrhoea,4.8%
CN(C(=O)n1cnc(-c2cccnc2)c1)C1CCCCC1,,"Wistar rat, pons","oral, 10 mg/kg, 1 h, single dose",,tissue concentration,74.3 ± 15 ng/g
[18F]c1ccc(-c2ccc3c(c2)[nH]c2ccncc23)cn1,ex vivo biodistribution,"normal B6SJL mice, caudate nucleus","intravenous, 30 min",,uptake,0.483 ± 0.148 SUV
Cc1ccc([C@@H]2O[C@H](CO)[C@@H](O)[C@H](O)[C@H]2O)cc1Cc1ccc(-c2ccc(F)cc2)s1,,Japanese type 2 diabetes patients,"100 mg, day 16, 24 h urine collection",reference: baseline,urinary chloride excretion change,-26.3 mEq
COc1ccnc(C(=O)O)c1O,FOCUS PEARL groundwater modelling,soil,geometric mean input,,KOC,8870 mL/g
CCOc1c([C@H](C)n2nc(C)c3c(N)ncnc32)cc(Cl)c(F)c1[C@@H]1CNC(=O)C1,,"patients, monotherapy","oral, 5 mg once daily, cycle 1 day 15",,half-life,11.4 h
CC(C)C[C@H](NC(=O)[C@@H](Cc1c[nH]c2ccccc12)NC(=O)[C@H](Cc1ccc(O)cc1)NC(=O)[C@H](CO)NC(=O)[C@H](Cc1c[nH]c2ccccc12)NC(=O)[C@H](Cc1c[nH]cn1)NC(=O)[C@@H]1CCC(=O)N1)C(=O)N[C@@H](CCCNC(=N)N)C(=O)N1CCC[C@H]1C(=O)NCC(N)=O,,"Chinese CPP children, boys","intramuscular, 22.5 mg, 12 months, day 1, month 6",,"patients, drug-related metabolic TEAEs",25%
O=C(CCCCCCC(=O)Nc1ccc(CC[18F])cc1)NO,,"athymic nu/nu male mice, LNCaP xenograft, bone","intravenous, 0.5 h",,tissue uptake,9.6 ± 2.18 %ID/g
Cn1cncc1-c1c(F)cncc1NC(=O)c1c(N)nn2cc(F)cnc12,population PK model,"patients with solid tumours, plasma",oral,,Q/F,3.59 L/h
Cc1cc(OCCOCCC(F)(F)P(=O)(O)O)ccc1CCc1cnc2c(N)nc3cc(CCC(=O)O)ccc3c2c1,,"human, serum","intratumoral, 100 µg every 2 weeks, cycle 1 day 1",,AUC(tau),15 ng·h/mL
COc1cc(C(=O)O)cc(OC)c1O,,human CSF,"concentration not given, mean",,CSF concentration,not detected
COc1cc2nccc(Oc3ccc(NC(=O)c4cc5c(n(-c6ccccc6)c4=O)CCCC5=O)nc3)c2cc1OC,,patients with relapsed/refractory AML,"oral, 6 mg once daily",,TEAEs leading to discontinuation,0%
CCN1/C(=C/C(C)=O)Sc2ccc(F)cc21,,cynomolgus monkey,"oral, 100 mg/kg, 6 h post-dose",,PR interval,93 ± 6 ms
O=C1c2ccncc2C(=O)c2c1[nH]c1ccccc21,,"Sprague-Dawley rat, female, right ventricle","oral, 1 mg/kg, 24 h",,tissue concentration,0.173 ± 0.072 nmol/mg
CC(C)(C(=O)N1CCOc2c(C#N)cncc2C1)C(F)F,item: Lymphadenopathy,human,"oral, 20 mg twice daily, 14 days, multiple ascending dose",,subjects with adverse event,0%
CCCCOC(=O)N1CCN(C(=O)[C@H](CP(=O)(O)O)NC(=O)c2cc(N3CC[C@H](OC)C3)nc(-c3ccccc3)n2)CC1,item: prothrombin time,"human, plasma","16 mg, 24 h post-dose",,change from baseline,-0.01 ± 0.08 INR
CC/C(=C(\c1ccccc1)c1ccc(OCCN(C)C)cc1)c1ccccc1,,"male Hartley guinea pigs, anaesthetized","intravenous, 10 mg/kg over 10 min, after infusion",,heart rate,188 ± 0.6 beats/min
CCC(=O)N(CCC(c1ccc2c(c1)OCO2)c1ccccc1OC)Cc1ccccc1 (centres unmarked),,"mouse, blood","i.p., 60 mg/kg twice daily, 2 weeks",,albumin/globulin ratio,0.675
CN(CCC(=O)O)C(=O)c1ccc2c(c1)CC[C@@H]1[C@@H]2CC[C@]2(C)C(c3cncc(F)c3)=CC[C@@H]12,,"premenopausal women, endometriosis pain, serum","60 mg twice daily, visit 4, mean",reference: baseline,indirect bilirubin change,0.62 mg/dL
O=C(Nc1cnccc1Cl)N1CCN(Cc2ccc3c(c2)OC(F)(F)O3)CC1,item: Haematoma,healthy elderly humans,"100 mg once daily, 10 days",,volunteers with adverse event,0%
O=C(COc1ccc(Cl)cc1)NC12CC(c3nnc([C@H]4C[C@@H](OC(F)(F)F)C4)o3)(C1)C2,,human both sexes,"oral, 260 mg once daily, 14 days",,participants with procedural pain,28.6%
O=C(NCc1ccc(CNCc2ccccc2)cc1)c1csc2nc[nH]c(=O)c12,haemolysis,human red blood cells,"1 h, 37 °C",,EC50,> 100 µM
O=c1oc2cc(O)ccc2c2cc(O)ccc12,,human CSF,"concentration not given, mean",,CSF concentration,not detected
O=C(O)CCC(=O)O.[2H]C([2H])([2H])Oc1cc(C)c2[nH]ccc2c1CN1CC[C@@H](C2CC2)C[C@H]1c1ccc(C(=O)O)cc1,multiple ascending dose,healthy Chinese subjects,50 mg twice daily,,subjects with elevated cholesterol TEAE,0%
O=C(CCCN1CCC(O)(c2ccc(Cl)cc2)CC1)c1ccc(F)cc1,,"male Hartley guinea pigs, anaesthetized","intravenous, 0.01 mg/kg group, baseline before infusion",,heart rate,226 ± 0.4 beats/min
CN[C@@H]1COc2c(S(=O)(=O)NC(=O)Nc3c4c(cc5c3CCC5)CCC4)cnn2C1,,"human, plasma","oral, 900 mg twice daily, D8",,predose plasma concentration,5220 ng/mL

# Some of these lines once more:
SMILES,assay,system,conditions,scale,quantity,result
NC1(C(=O)N[C@@H](CCO)c2ccc(Cl)cc2)CCN(c2nc[nH]c3nccc2-3)CC1,"LC-MS/MS, non-compartmental","human patients, plasma","160/480 mg cohort, cycle 0, geometric mean, added: enzalutamide",,Tmax,2.3 h
Cn1cc(Nc2nccc(-c3ccc4c(c3)CN(C3COC3)CC[C@H]4NC(=O)c3cn(C(C)(C)C)nn3)n2)cn1,,"human, whole blood","150 mg twice daily, day 14",reference: pre-dose baseline,non-switched memory B cell change,-20.5%
COc1ccc2[nH]c([S@+]([O-])Cc3ncc(C)c(OC)c3C)nc2c1,,"human male, dried plasma spots","oral, 5 mg racemic omeprazole, added: fluvoxamine and voriconazole",,AUC(0-8 h),1.58 µM·h
CNCc1ccc(-c2[nH]c3cc(F)cc4c3c2CCNC4=O)cc1,,patients,"oral, 240 mg twice daily, all grades",,abdominal pain incidence,0%
